{"data": "Measurements collected from several papers", "note": "Each numbered part is a random draw from the data of one study; scales do not carry over between parts. Positions count from the first letter of the parent shown.", "chain of UniProt P36897 (whole entry, looked up)": "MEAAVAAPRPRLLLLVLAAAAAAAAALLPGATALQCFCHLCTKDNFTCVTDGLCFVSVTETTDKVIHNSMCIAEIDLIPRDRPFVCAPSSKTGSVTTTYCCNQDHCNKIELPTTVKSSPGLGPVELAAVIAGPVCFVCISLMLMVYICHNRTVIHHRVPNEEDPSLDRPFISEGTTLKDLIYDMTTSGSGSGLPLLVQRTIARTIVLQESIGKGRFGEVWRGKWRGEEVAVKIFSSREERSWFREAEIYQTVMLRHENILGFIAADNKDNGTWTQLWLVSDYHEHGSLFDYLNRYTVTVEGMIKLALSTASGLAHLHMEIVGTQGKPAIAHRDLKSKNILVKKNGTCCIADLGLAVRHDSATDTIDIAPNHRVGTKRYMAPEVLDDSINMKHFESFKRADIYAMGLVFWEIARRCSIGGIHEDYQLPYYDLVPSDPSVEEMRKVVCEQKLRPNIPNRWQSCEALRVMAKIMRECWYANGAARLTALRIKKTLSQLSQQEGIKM", "chain of UniProt O96017 (whole entry, looked up)": "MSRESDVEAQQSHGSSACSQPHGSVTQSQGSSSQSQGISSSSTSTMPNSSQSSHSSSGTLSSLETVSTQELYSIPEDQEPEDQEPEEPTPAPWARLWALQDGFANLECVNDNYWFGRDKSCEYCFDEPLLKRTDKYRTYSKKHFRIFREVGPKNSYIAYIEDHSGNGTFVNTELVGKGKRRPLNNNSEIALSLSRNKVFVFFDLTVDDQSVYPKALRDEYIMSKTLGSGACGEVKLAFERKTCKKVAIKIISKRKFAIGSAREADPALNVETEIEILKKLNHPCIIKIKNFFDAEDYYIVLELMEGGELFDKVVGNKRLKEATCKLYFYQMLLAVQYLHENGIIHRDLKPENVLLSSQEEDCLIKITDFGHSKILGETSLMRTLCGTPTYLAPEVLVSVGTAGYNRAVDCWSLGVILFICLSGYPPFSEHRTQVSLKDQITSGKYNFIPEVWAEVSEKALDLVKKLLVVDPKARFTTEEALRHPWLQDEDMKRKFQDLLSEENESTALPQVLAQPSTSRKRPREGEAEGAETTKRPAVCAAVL", "chain of UniProt P51955 (whole entry, looked up)": "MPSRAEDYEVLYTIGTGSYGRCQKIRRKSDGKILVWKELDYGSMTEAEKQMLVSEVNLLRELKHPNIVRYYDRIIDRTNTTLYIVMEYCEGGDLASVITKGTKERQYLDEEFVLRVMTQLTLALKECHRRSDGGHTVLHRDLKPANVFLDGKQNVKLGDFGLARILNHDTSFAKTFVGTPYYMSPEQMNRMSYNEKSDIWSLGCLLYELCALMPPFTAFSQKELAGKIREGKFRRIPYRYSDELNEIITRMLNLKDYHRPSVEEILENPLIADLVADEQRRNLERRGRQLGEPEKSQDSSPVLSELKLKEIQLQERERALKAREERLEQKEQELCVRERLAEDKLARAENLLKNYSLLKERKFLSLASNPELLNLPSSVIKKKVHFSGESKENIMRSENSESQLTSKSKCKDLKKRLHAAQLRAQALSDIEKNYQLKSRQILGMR", "chain of UniProt Q9BRS2 (whole entry, looked up)": "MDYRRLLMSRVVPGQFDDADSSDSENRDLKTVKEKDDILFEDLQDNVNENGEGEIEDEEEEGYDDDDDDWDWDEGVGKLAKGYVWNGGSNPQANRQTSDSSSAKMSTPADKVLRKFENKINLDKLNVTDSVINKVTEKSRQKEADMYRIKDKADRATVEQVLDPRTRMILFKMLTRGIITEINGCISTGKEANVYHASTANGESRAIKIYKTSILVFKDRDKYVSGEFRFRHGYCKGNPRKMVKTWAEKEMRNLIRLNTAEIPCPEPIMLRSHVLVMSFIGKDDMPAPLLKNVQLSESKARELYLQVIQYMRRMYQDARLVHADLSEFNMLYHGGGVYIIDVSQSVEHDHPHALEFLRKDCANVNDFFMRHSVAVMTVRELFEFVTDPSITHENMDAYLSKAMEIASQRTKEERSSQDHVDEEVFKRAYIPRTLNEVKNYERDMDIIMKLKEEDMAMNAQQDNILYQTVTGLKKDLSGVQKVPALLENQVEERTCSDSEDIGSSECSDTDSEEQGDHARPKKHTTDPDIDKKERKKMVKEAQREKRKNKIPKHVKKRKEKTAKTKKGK", "chain of UniProt P42336 (whole entry, unmodified, looked up)": "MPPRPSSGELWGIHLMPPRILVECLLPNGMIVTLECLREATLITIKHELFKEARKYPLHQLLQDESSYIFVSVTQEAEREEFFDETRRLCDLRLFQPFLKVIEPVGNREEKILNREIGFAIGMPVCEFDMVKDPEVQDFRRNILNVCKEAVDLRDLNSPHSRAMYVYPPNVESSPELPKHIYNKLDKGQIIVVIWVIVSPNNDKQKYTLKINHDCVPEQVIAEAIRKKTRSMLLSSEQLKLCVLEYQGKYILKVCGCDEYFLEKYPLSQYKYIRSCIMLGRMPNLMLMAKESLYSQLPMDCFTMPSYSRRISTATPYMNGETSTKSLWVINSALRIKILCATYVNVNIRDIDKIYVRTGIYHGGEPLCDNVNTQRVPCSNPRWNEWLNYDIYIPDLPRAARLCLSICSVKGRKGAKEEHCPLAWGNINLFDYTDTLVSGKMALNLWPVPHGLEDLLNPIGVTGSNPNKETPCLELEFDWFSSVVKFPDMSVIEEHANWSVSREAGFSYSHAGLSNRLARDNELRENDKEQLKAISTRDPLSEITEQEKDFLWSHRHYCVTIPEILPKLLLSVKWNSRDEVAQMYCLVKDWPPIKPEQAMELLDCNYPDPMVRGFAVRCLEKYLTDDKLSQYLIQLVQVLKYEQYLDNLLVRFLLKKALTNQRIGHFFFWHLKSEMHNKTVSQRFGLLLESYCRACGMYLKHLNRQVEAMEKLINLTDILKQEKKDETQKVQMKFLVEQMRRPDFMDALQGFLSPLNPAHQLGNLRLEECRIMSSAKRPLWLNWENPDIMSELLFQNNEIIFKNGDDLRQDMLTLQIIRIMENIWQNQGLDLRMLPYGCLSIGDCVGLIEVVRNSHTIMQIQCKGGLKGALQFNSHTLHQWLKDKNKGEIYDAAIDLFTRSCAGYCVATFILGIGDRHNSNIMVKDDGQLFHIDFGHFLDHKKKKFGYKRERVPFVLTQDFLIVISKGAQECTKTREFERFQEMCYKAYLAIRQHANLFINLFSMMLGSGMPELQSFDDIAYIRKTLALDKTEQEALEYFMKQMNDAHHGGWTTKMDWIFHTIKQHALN", "chain of UniProt Q15831 (whole entry, looked up)": "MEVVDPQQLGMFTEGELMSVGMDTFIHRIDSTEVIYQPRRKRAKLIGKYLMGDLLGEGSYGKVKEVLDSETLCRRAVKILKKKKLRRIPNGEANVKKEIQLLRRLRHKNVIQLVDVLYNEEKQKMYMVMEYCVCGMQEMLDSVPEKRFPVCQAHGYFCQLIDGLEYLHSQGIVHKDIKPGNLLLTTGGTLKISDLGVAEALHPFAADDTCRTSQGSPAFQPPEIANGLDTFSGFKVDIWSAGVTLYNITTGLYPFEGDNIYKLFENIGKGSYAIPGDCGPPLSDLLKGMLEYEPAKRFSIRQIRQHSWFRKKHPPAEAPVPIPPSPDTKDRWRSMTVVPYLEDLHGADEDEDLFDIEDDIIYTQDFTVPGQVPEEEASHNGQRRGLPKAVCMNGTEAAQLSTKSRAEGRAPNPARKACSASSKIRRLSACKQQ", "chain of UniProt Q9NY57 (whole entry, looked up)": "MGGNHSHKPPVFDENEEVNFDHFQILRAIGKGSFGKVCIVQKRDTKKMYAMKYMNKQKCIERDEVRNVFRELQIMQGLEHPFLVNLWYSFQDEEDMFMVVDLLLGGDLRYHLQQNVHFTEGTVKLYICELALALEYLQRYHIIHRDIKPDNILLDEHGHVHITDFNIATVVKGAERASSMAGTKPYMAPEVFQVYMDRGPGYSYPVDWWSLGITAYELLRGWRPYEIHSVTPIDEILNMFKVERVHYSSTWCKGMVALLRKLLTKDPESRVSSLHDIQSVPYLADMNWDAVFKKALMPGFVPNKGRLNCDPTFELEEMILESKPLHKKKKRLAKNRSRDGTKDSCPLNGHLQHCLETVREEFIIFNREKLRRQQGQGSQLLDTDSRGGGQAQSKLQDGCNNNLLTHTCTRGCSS", "chain of UniProt Q13555 (whole entry, looked up)": "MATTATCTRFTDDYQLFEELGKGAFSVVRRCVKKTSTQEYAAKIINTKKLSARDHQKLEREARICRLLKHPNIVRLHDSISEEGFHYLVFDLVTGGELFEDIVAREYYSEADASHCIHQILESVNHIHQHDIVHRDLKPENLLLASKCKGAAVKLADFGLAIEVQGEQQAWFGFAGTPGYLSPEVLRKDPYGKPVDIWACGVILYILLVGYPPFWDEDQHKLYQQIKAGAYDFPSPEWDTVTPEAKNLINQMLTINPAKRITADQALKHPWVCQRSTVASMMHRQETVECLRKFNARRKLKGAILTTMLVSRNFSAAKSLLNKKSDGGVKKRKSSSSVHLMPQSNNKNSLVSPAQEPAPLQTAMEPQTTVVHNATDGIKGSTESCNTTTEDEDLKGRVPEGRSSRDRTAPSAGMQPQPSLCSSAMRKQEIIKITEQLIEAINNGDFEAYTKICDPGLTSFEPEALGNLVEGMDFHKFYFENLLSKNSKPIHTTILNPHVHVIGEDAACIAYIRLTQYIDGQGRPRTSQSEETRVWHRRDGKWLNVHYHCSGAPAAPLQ", "chain of UniProt Q9UIK4 (whole entry, looked up)": "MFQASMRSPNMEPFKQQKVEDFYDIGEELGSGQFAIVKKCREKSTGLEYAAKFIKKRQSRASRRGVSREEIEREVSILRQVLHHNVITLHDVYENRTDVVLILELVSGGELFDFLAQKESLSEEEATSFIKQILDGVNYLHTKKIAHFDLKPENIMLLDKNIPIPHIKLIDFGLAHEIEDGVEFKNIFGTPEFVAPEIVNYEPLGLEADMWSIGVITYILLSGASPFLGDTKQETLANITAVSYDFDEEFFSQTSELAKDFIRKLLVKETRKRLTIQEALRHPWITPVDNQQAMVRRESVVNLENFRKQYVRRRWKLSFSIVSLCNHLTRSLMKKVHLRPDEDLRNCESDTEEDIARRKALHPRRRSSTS"}
{"data": "Study 1", "target": "CCND3, cyclin fold, Cln2 fusion (human)", "technique": "yeast growth competition, sequencing", "matrix": "yeast", "notes": "weak parent motif", "relative to": "not given", "direction": "higher = stronger binding", "starting sequence": "CDC25A docking peptide (human); PPHRRRLLFACSP"}
{"Variant": "PPHRRRQLFACSP [L7Q]", "normalised enrichment score": 0.121}
{"Variant": "PPHRRRLTFACSP [L8T]", "normalised enrichment score": 0.144}
{"Variant": "PPHRRRLLFACSA [P13A]", "normalised enrichment score": 0.15}
{"Variant": "PPHRRRLLFACVP [S12V]", "normalised enrichment score": 0.156}
{"Variant": "PPHRRRLLLACSP [F9L]", "normalised enrichment score": 0.307}
{"Variant": "PPHRRRLLFACKP [S12K]", "normalised enrichment score": 0.101}
{"Variant": "PPHRRRLLFACWP [S12W]", "normalised enrichment score": 0.156}
{"Variant": "PPHRRVLLFACSP [R6V]", "normalised enrichment score": 0.182}
{"data": "Study 2", "target": "Prothrombin, mature alpha-thrombin (F2, Homo sapiens, UniProt P00734)", "technique": "aptamer microarray, sandwich", "form": "DNA with 2'F-ANA", "matrix": "in vitro", "tested at": "200 nM", "notes": "whole 15-mer aptamer, many near background", "together with": "Cy3 exosite-II aptamer, 400 nM", "direction": "higher = stronger binding", "oligonucleotide": "GGTTGGTGTGGTTGG"}
{"Modification": "2'F-ANA at 2 3 4 6 9 10 11 13", "mean fluorescence intensity [a.u.]": 196}
{"Modification": "2'F-ANA at 3 4 6 7 9 10 11 14 15", "mean fluorescence intensity [a.u.]": 152}
{"Modification": "2'F-ANA at 1 3 9 10 11 12 13 14", "mean fluorescence intensity [a.u.]": 62.8}
{"Modification": "2'F-ANA at 1 2 3 6 7 9 11 13 14 15", "mean fluorescence intensity [a.u.]": 63.3}
{"Modification": "2'F-ANA at 1 9 10 11 13 15", "mean fluorescence intensity [a.u.]": 54.2}
{"Modification": "2'F-ANA at 1 2 3 4 10 11 15", "mean fluorescence intensity [a.u.]": 56.5}
{"Modification": "2'F-ANA at 2 7 9 10 11 12 13 15", "mean fluorescence intensity [a.u.]": 131}
{"Modification": "2'F-ANA at 4 5 7 8 9 12", "mean fluorescence intensity [a.u.]": 159}
{"data": "Study 3", "Compound": "CC(C)n1cnc2c(Nc3cccc(Cl)c3)nc(NCCO)nc21", "effect on": "enzyme activity", "action": "inhibitor", "tested at": "0.5 µM", "relative to": "control"}
{"target": "Protein kinase C beta type, isoform beta-I (PRKCB, Homo sapiens, UniProt P05771)", "remaining activity": "102%"}
{"target": "Death-associated protein kinase 1 (DAPK1, Homo sapiens, UniProt P53355)", "remaining activity": "78.8%"}
{"target": "Inhibitor of nuclear factor kappa-B kinase subunit epsilon (IKBKE, Homo sapiens, UniProt Q14164)", "remaining activity": "97.6%"}
{"target": "cAMP-dependent protein kinase catalytic subunit alpha (PRKACA, Homo sapiens, UniProt P17612)", "remaining activity": "99.5%"}
{"target": "Cyclin-dependent kinase 4, with cyclin D1 (CDK4, Homo sapiens, UniProt P11802)", "remaining activity": "77%"}
{"target": "Serine/threonine-protein kinase STK11 (STK11, Homo sapiens, UniProt Q15831)", "remaining activity": "76.1%"}
{"target": "STE20/SPS1-related proline-alanine-rich protein kinase (STK39, Homo sapiens, UniProt Q9UEW8)", "remaining activity": "100%"}
{"target": "TGF-beta receptor type-2 (TGFBR2, Homo sapiens, UniProt P37173)", "remaining activity": "70.2%"}
{"target": "G protein-coupled receptor kinase 3 (GRK3, Homo sapiens, UniProt P35626)", "remaining activity": "90.5%"}
{"target": "Death-associated protein kinase 2 (DAPK2, Homo sapiens, UniProt Q9UIK4)", "remaining activity": "92.8%"}
{"target": "Calcium/calmodulin-dependent protein kinase kinase 2 (CAMKK2, Homo sapiens, UniProt Q96RR4)", "remaining activity": "68.2%"}
{"target": "Serine/threonine-protein kinase Chk2 (CHEK2, Homo sapiens, UniProt O96017)", "remaining activity": "78.5%"}
{"target": "Calcium/calmodulin-dependent protein kinase type II subunit delta (CAMK2D, Homo sapiens, UniProt Q13557)", "remaining activity": "84.2%"}
{"target": "Mitogen-activated protein kinase kinase kinase 3 (MAP3K3, Homo sapiens, UniProt Q99759)", "remaining activity": "97.4%"}
{"target": "Serine/threonine-protein kinase OSR1 (OXSR1, Homo sapiens, UniProt O95747)", "remaining activity": "97.8%"}
{"target": "Mitogen-activated protein kinase 9 (MAPK9, Homo sapiens, UniProt P45984)", "remaining activity": "101%"}
{"target": "TGF-beta receptor type-1 (TGFBR1, Homo sapiens, UniProt P36897)", "remaining activity": "97.7%"}
{"target": "Inhibitor of nuclear factor kappa-B kinase subunit beta (IKBKB, Homo sapiens, UniProt O14920)", "remaining activity": "102%"}
{"target": "Cyclin-dependent kinase 5, with p25 (CDK5, Homo sapiens, UniProt Q00535)", "remaining activity": "26.2%"}
{"target": "Tyrosine-protein kinase Lyn, isoform B (LYN, Homo sapiens, UniProt P07948)", "remaining activity": "94.6%"}
{"target": "Protein kinase C alpha type (PRKCA, Homo sapiens, UniProt P17252)", "remaining activity": "78.6%"}
{"target": "cGMP-dependent protein kinase 1, isoform beta (PRKG1, Homo sapiens, UniProt Q13976)", "remaining activity": "98.1%"}
{"data": "Study 4", "SMILES": "C[C@H](NC(=O)c1cnc2n1[C@](C)(Cc1ccc(C#N)cc1)C(=O)N2c1cc(Cl)c(F)c(Cl)c1)C(=O)NC1(c2ccccn2)CC1", "tested at": "1 µM"}
{"target": "Calcium/calmodulin-dependent protein kinase type 1G (CAMK1G, Homo sapiens, UniProt Q96NX5)", "effect on": "cell-free assay", "technique": "competition with immobilised ligand", "remaining binding [%]": 100}
{"target": "Mast/stem cell growth factor receptor Kit (KIT, Homo sapiens, UniProt P10721, V559D)", "effect on": "cell-free assay", "technique": "competition with immobilised ligand", "remaining binding [%]": 91}
{"target": "Phosphatidylinositol 4,5-bisphosphate 3-kinase catalytic subunit alpha isoform (PIK3CA, Homo sapiens, UniProt P42336, M1043I)", "effect on": "cell-free assay", "technique": "competition with immobilised ligand", "remaining binding [%]": 100}
{"target": "Tyrosine-protein kinase ZAP-70 (ZAP70, Homo sapiens, UniProt P43403)", "effect on": "cell-free assay", "technique": "competition with immobilised ligand", "remaining binding [%]": 100}
{"target": "Calcium/calmodulin-dependent protein kinase type II subunit gamma (CAMK2G, Homo sapiens, UniProt Q13555)", "effect on": "cell-free assay", "technique": "competition with immobilised ligand", "remaining binding [%]": 100}
{"target": "Serine/threonine-protein kinase Nek2 (NEK2, Homo sapiens, UniProt P51955)", "effect on": "cell-free assay", "technique": "competition with immobilised ligand", "remaining binding [%]": 95}
{"target": "Phosphatidylinositol 5-phosphate 4-kinase type-2 gamma (PIP4K2C, Homo sapiens, UniProt Q8TBX8)", "effect on": "cell-free assay", "technique": "competition with immobilised ligand", "remaining binding [%]": 100}
{"target": "Serine/threonine-protein kinase RIO1 (RIOK1, Homo sapiens, UniProt Q9BRS2)", "effect on": "cell-free assay", "technique": "competition with immobilised ligand", "remaining binding [%]": 100}
{"target": "Protein kinase C iota type (PRKCI, Homo sapiens, UniProt P41743)", "effect on": "cell-free assay", "technique": "competition with immobilised ligand", "remaining binding [%]": 100}
{"target": "Rhodopsin kinase GRK1 (GRK1, Homo sapiens, UniProt Q15835)", "effect on": "cell-free assay", "technique": "competition with immobilised ligand", "remaining binding [%]": 100}
{"target": "TGF-beta receptor type-1 (TGFBR1, Homo sapiens, UniProt P36897)", "effect on": "cell-free assay", "technique": "competition with immobilised ligand", "remaining binding [%]": 82}
{"target": "Serine/threonine-protein kinase Chk2 (CHEK2, Homo sapiens, UniProt O96017)", "effect on": "cell-free assay", "technique": "competition with immobilised ligand", "remaining binding [%]": 100}
{"target": "Serine/threonine-protein kinase MRCK gamma (CDC42BPG, Homo sapiens, UniProt Q6DT37)", "technique": "competition binding", "remaining binding [%]": 100}
{"target": "Serine/threonine-protein kinase ULK2 (ULK2, Homo sapiens, UniProt Q8IYT8)", "effect on": "cell-free assay", "technique": "competition with immobilised ligand", "remaining binding [%]": 100}
{"target": "Dual specificity tyrosine-phosphorylation-regulated kinase 2 (DYRK2, Homo sapiens, UniProt Q92630)", "effect on": "cell-free assay", "technique": "competition with immobilised ligand", "remaining binding [%]": 98}
{"target": "Serine/threonine-protein kinase 32B (STK32B, Homo sapiens, UniProt Q9NY57)", "effect on": "cell-free assay", "technique": "competition with immobilised ligand", "remaining binding [%]": 80}
{"note": "Excerpt of the above (study 1):"}
{"Variant": "PPHRRRLLFACKP [S12K]", "normalised enrichment score": 0.101}
{"Variant": "PPHRRRLTFACSP [L8T]", "normalised enrichment score": 0.144}
{"Variant": "PPHRRRQLFACSP [L7Q]", "normalised enrichment score": 0.121}
{"Variant": "PPHRRRLLLACSP [F9L]", "normalised enrichment score": 0.307}
{"Variant": "PPHRRRLLFACSA [P13A]", "normalised enrichment score": 0.15}
